Measured values gathered from unrelated publications.
Compare with care: the assays were run in different laboratories.

`CCN1CCN(Cc2ccc(Nc3ncc(F)c(-c4cc(F)c5nc6n(c5c4)[C@H](C)CCC6)n3)nc2)CC1` has a Cmax of 283 ng/mL (human, plasma; 200 mg multiple dosing, mean).
`COc1cc(N2CCC(N3CCN(C)CC3)CC2)ccc1Nc1ncnc(Nc2ccccc2S(=O)(=O)C(C)C)n1` has a Cmax of 184 ng/mL (human, plasma; oral, 50 mg, day 1).
`C[C@@H]1CCO[C@H]2Cn3cc(C(=O)NCc4ccc(F)cc4F)c(=O)c(O)c3C(=O)N12` gave a Cmax of 4000 ng/mL (human, body weight 25 to <30 kg, plasma; oral, 35 mg, film-coated tablet, steady state).
The Cmax of `O=C(COc1ccc(Cl)cc1)NC12CC(c3nnc([C@H]4C[C@@H](OC(F)(F)F)C4)o3)(C1)C2` is reported as 2150 nM (healthy human volunteers fasted, plasma; oral, 200 mg single dose, arithmetic mean).
`CCOc1c([C@H](C)n2nc(C)c3c(N)ncnc32)cc(Cl)c(F)c1[C@@H]1CNC(=O)C1` has a Cmax of 2060 nM (human, DLBCL, plasma; oral, 20 mg, day 15).
`CCn1cc(C(=O)N2CCOCC2)c(=O)c2cc(NC3Cc4ccccc4C3)cnc21` has a Cmax of 1880 ng/mL (human, fed; oral suspension, 600 mg single dose, arithmetic mean).
With `O=C(O)CCC(=O)O.[2H]C([2H])([2H])Oc1cc(C)c2[nH]ccc2c1CN1CC[C@@H](C2CC2)C[C@H]1c1ccc(C(=O)O)cc1` the Cmax was 3390 ng/mL (healthy humans, fed; oral, 200 mg, single dose, high-fat meal).
`C=CC(=O)N(C)CCOc1c(N)ncnc1-c1cc(F)cc(NC(=O)c2ccc(C3CC3)cc2F)c1C`: “Cmax per dose” 9 ng/mL/mg (human; oral, 20 mg, day 7, arithmetic mean, added: ritonavir).
The Cmax of `CO[C@H]1C[C@@H]2CC[C@@H](C)[C@@](O)(O2)C(=O)C(=O)N2CCCC[C@H]2C(=O)O[C@H]([C@H](C)C[C@@H]2CC[C@@H](OC(=O)NCCOCCOCCOCCOCCOCCOCCOCCOCCC(=O)N3CCc4cc(Cn5nc(-c6ccc7oc(N)nc7c6)c6c(N)ncnc65)ccc4C3)[C@H](OC)C2)C[C@@H](O)[C@H](C)/C=C(\C)[C@@H](O)[C@@H](OC)C(=O)[C@H](C)C[C@H](C)/C=C/C=C/C=C/1C` is reported as 284 nM (human patients, plasma; intravenous, 10 mg, cycle 1 day 15, 1 h infusion).
For `Cl.[2H]C([2H])([2H])CC(=O)c1cnc(NC(=O)C2CC2)cc1Nc1cccc(-c2ncn(C([2H])([2H])[2H])n2)c1OC`, the Cmax was 131 ng/mL (human, fed, plasma; oral, 25 mg, single dose, liquid formulation).
For `COc1ncc(-c2nc3c(n2C(C)C)[C@H](c2ccc(Cl)cc2)N(c2cc(Cl)cn(C)c2=O)C3=O)c(OC)n1`, the Cmax was 852 ng/mL (LC-MS/MS, noncompartmental; human, plasma; oral, 120 mg, C2D1, high-dose, geometric mean).

Excerpt of the above:
The Cmax of `O=C(COc1ccc(Cl)cc1)NC12CC(c3nnc([C@H]4C[C@@H](OC(F)(F)F)C4)o3)(C1)C2` is reported as 2150 nM (healthy human volunteers fasted, plasma; oral, 200 mg single dose, arithmetic mean).
